Published values gathered from unrelated publications.
Each numbered part is a random draw from the data of one study; scales do not carry over between parts. ± marks the error that the study gave.
Chain of UniProt P51812 (whole entry, looked up): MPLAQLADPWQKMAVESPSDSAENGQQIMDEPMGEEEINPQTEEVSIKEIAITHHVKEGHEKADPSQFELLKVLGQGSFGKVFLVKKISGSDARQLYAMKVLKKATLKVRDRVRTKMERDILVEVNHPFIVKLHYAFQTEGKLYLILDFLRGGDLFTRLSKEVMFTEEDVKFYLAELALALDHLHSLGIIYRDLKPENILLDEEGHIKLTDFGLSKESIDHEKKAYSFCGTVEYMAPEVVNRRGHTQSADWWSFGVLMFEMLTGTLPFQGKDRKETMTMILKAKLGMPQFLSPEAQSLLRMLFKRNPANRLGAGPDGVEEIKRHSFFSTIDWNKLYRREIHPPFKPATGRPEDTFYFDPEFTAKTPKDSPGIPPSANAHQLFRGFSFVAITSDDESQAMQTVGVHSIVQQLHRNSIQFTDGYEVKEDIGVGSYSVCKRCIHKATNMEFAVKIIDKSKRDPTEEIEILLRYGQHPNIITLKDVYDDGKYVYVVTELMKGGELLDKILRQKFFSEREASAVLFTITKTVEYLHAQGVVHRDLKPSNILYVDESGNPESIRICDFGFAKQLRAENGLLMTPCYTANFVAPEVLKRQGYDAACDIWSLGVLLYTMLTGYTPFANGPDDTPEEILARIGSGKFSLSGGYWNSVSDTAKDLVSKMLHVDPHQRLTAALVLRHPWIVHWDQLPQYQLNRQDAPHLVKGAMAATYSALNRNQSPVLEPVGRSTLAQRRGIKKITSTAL
Chain of UniProt P29323 (whole entry, looked up): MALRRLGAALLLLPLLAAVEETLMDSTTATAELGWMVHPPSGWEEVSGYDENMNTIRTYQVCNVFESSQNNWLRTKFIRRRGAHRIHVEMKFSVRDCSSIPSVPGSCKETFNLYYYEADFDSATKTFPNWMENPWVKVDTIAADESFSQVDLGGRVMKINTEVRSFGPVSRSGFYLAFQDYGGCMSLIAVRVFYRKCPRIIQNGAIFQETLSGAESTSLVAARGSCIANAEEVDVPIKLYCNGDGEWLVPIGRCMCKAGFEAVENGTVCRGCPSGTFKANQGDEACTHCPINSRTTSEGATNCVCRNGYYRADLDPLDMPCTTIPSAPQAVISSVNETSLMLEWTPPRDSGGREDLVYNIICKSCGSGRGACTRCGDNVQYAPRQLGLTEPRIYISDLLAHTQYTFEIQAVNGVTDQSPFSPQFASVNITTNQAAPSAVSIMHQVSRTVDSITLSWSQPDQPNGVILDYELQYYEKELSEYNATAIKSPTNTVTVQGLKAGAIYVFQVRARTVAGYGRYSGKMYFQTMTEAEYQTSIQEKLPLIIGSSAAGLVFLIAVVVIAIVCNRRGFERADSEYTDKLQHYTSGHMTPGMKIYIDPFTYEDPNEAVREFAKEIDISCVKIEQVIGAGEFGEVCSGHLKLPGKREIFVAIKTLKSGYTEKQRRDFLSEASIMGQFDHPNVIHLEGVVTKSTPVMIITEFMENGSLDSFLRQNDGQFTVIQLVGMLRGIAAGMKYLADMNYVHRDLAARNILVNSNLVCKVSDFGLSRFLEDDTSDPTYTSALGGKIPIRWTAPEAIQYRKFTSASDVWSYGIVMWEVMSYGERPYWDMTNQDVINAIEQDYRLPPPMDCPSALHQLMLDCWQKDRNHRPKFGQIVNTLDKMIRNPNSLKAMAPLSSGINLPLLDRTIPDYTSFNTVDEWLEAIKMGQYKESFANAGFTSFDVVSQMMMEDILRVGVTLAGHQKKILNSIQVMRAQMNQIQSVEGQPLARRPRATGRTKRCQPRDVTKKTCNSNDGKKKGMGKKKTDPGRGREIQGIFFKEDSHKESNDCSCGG
Chain of UniProt P57078 (whole entry, looked up): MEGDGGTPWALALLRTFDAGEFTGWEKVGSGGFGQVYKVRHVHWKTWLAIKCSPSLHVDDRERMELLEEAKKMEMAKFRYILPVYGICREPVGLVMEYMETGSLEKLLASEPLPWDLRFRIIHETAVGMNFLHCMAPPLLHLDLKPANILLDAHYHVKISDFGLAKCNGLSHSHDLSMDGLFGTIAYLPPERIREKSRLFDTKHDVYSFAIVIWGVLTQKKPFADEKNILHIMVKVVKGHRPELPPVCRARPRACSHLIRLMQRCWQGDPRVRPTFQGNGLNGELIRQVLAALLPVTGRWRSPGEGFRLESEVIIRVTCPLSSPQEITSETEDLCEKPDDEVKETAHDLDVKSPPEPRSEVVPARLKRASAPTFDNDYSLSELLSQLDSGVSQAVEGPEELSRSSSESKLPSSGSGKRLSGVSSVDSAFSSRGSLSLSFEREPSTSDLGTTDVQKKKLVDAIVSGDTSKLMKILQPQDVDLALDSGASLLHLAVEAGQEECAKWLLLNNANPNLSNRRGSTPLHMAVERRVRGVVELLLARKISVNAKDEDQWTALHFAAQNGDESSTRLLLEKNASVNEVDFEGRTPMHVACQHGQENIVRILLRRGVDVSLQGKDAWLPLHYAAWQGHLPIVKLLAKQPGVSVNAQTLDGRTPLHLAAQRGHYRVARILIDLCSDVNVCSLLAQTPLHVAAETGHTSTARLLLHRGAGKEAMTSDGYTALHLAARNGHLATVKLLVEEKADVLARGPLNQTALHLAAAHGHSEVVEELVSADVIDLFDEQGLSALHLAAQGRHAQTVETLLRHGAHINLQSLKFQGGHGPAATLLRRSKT
Chain of UniProt Q96RR4 (whole entry, looked up): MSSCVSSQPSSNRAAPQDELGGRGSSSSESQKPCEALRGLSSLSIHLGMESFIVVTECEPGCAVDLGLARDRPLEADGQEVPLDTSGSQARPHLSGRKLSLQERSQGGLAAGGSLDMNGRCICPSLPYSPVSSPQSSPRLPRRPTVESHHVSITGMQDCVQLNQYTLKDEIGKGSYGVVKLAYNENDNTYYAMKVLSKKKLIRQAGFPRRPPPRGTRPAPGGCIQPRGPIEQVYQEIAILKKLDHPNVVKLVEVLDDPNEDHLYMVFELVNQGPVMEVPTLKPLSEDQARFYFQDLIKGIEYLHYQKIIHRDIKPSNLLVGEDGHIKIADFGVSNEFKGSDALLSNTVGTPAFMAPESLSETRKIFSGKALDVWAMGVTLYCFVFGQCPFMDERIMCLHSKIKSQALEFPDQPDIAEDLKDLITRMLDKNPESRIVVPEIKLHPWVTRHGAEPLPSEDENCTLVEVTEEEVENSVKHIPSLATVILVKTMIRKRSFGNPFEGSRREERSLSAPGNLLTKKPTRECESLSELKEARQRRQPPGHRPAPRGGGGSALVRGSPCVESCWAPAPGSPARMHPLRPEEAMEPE
Chain of UniProt Q92772 (whole entry, looked up): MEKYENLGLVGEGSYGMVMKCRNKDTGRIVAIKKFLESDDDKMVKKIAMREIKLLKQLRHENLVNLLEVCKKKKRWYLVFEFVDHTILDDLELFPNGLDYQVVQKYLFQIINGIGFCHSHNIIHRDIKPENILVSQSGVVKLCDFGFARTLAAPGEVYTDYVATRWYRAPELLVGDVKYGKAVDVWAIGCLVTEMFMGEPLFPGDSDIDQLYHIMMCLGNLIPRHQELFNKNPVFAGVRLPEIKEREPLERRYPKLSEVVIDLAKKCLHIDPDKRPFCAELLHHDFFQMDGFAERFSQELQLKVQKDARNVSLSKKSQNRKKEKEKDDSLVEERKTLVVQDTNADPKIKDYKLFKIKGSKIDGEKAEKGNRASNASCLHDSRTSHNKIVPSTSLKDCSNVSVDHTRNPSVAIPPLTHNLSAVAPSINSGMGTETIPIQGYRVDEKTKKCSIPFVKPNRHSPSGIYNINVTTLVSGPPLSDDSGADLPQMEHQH
Chain of UniProt Q96GD4 (whole entry, looked up): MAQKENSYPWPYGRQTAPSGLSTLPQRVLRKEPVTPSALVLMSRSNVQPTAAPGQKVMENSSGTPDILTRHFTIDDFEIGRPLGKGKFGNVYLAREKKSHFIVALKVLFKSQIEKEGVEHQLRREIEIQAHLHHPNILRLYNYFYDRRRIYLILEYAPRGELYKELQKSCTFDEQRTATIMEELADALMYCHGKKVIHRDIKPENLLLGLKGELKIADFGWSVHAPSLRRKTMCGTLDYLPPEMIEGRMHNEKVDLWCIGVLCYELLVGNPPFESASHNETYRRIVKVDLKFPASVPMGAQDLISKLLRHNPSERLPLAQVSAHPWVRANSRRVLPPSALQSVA

Study 1 — sample: EL4 tumour; dose: dose not given; baseline: vehicle
Structure (SMILES): CC(=O)N[C@@H](Cc1c[nH]c2ccccc12)C(=O)N[C@@H](CCC(=O)C=[N+]=[N-])C(=O)OC(C)C
| test | system | log2 fold change |
| --- | --- | --- |
| item: hydroxymethylpyrimidine | mouse, EL4 tumour-bearing | 0.0271 |
| metabolomics, item: 3-phenylpropionate | mouse | -0.848 |
| item: bicine | mouse, EL4 tumour-bearing | 0.61 |
| item: O-methyltyrosine | mouse, EL4 tumour-bearing | 0.347 |
| item: glutamate gamma-methyl ester | Mus musculus | -2.92 |
| item: isoleucine | mouse, EL4 tumour-bearing | 0.397 |
| item: thymine | mouse, EL4 tumour-bearing | 0.181 |
| item: lactate | mouse, EL4 tumour-bearing | 0.114 |
| item: homocitrulline | mouse, EL4 tumour-bearing | -0.635 |
| item: phosphate | mouse, EL4 tumour-bearing | 0.0828 |
| item: uracil | mouse, EL4 tumour-bearing | 0.0353 |
| item: benzoate | mouse, EL4 tumour-bearing | 0.251 |
| item: gamma-glutamyl-epsilon-lysine | mouse, EL4 tumour-bearing | 0.289 |
| item: histamine | mouse, EL4 tumour-bearing | 0.422 |
| item: 2-hydroxybutyrate/2-hydroxyisobutyrate | mouse, EL4 tumour-bearing | -0.0911 |
| metabolomics, item: 5'-GMP | mouse | -0.521 |
| item: 6-phosphogluconate | mouse, EL4 tumour-bearing | 1.03 |
| item: glycerate | mouse, EL4 tumour-bearing | 0.0713 |
| item: N-acetylmethionine | mouse, EL4 tumour-bearing | 0.596 |
| item: p-cresol sulfate | mouse, EL4 tumour-bearing | -0.714 |

Study 2 — effect on: enzyme activity; mode: inhibitor; tested at: 0.5 µM; baseline: control
Target: Dual serine/threonine and tyrosine protein kinase (DSTYK, Homo sapiens, UniProt Q6XUX3)
Chain of UniProt Q6XUX3 (whole entry, looked up): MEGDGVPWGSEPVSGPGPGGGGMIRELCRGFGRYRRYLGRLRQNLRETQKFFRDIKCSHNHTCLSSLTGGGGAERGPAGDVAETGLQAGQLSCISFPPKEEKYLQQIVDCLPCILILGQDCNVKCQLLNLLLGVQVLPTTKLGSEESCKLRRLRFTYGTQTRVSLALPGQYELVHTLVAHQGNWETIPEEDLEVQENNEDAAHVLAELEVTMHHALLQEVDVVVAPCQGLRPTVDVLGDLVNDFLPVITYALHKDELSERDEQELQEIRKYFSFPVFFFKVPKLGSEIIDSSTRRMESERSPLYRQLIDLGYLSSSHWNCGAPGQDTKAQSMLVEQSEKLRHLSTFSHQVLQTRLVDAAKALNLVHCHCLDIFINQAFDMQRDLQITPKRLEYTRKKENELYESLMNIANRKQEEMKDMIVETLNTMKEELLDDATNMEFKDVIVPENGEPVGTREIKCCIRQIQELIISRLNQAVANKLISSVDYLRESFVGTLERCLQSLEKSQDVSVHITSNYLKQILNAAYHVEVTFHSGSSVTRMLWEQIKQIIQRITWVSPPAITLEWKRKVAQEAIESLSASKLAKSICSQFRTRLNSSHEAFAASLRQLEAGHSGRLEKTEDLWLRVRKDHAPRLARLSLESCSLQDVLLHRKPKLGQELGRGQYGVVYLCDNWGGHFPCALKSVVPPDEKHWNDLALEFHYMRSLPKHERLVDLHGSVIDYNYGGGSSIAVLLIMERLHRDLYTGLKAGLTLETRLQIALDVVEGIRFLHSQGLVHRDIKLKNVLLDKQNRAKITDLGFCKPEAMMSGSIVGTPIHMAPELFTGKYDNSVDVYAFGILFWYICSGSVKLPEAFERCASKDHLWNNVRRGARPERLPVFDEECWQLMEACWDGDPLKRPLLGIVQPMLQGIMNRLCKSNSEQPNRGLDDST
| SMILES | remaining activity [%] |
| --- | --- |
| COc1ccc2c(c1)c(C1=C(c3c[nH]c4ccccc34)C(=O)NC1=O)cn2CCCN(C)C | 82.8 |
| Oc1cccc(-c2nc(N3CCOCC3)c3oc4ncccc4c3n2)c1 | 96.1 |
| c1ccc2c(-c3ccncc3)c[nH]c2c1 | 95.9 |
| Cc1cc(Nc2cc(N3CCN(C)CC3)nc(Sc3ccc(NC(=O)C4CC4)cc3)n2)[nH]n1 | 97.2 |
| O=C1Nc2ccc(Br)cc2/C1=C/c1cc2c([nH]1)CCCC2 | 93.1 |
| CN(C)S(=O)(=O)c1ccc2c(c1)/C(=C/c1cc3c([nH]1)CCCC3)C(=O)N2 | 96 |
| COc1ccc(COc2ccc(Cc3cnc(N)nc3N)cc2OC)cc1 | 95 |
| CN1CCN(c2ccc3nc(-c4c(N)c5c(F)cccc5[nH]c4=O)[nH]c3c2)CC1 | 98.4 |
| O=Nc1c(-c2c(O)[nH]c3cc(Br)ccc23)[nH]c2ccccc12 | 102 |
| O=C1NC(=O)c2c1c1c3ccccc3[nH]c1n1cncc21 | 106 |
| Cc1ccc(S(=O)(=O)/C=C/C#N)cc1 | 97.8 |

Study 3 — effect on: kinase activity
SMILES: COc1cc(C(=O)N2CCC(N3CCN(C)CC3)CC2)ccc1Nc1ncc2c(n1)N(C)c1ccccc1C(=O)N2C
| target | setting | remaining activity |
| --- | --- | --- |
| EPH-A2 | 10 µM | 91 ± 11% |
| TRKA | 1 µM | 79 ± 8% |
| LCK | 10 µM | 99 ± 5% |
| PRAK | 1 µM | 102 ± 13% |
| PRK2 | 1 µM | 74 ± 10% |
| JNK1 | 1 µM | 85 ± 5% |
| BTK | 1 µM | 95 ± 21% |
| IKKe | 10 µM | 88 ± 4% |
| SRC | 1 µM | 99 ± 4% |
| IRAK4 | 10 µM | 94 ± 4% |

Study 4 — method: competition with immobilised ligand; tested at: 1 µM
SMILES: Cn1nc(C(F)(F)F)cc1-c1cnc(N2CCc3cc(S(=O)(=O)Nc4c(F)cc(Cl)cc4F)cc(N4CCCC4=O)c32)nc1
| target | test | remaining binding |
| --- | --- | --- |
| DSTYK (Homo sapiens, UniProt Q6XUX3) | cell-free assay | 83% |
| CLK2 (Homo sapiens, UniProt P49760) | cell-free assay | 86% |
| Myosin-IIIb (MYO3B, Homo sapiens, UniProt Q8WXR4) | binding | 100% |
| RIPK4 (Homo sapiens, UniProt P57078) | cell-free assay | 67% |
| CDK11A (Homo sapiens, UniProt Q9UQ88) | binding | 100% |
| FER (Homo sapiens, UniProt P16591) | cell-free assay | 100% |
| EPHB2 (Homo sapiens, UniProt P29323) | cell-free assay | 100% |
| NEK7 (Homo sapiens, UniProt Q8TDX7) | cell-free assay | 100% |
| EGFR (Homo sapiens, UniProt P00533, L858R/T790M) | cell-free assay | 100% |
| FLT3 (Homo sapiens, UniProt P36888, K663Q) | cell-free assay | 100% |
| Ribosomal protein S6 kinase alpha-3, C-terminal kinase domain (RPS6KA3, Homo sapiens, UniProt P51812) | cell-free assay | 100% |
| Macrophage colony-stimulating factor 1 receptor, autoinhibited (CSF1R, Homo sapiens, UniProt P07333) | cell-free assay | 91% |
| CDKL2 (Homo sapiens, UniProt Q92772) | binding | 100% |
| CAMKK2 (Homo sapiens, UniProt Q96RR4) | cell-free assay | 93% |
| ALK (Homo sapiens, UniProt Q9UM73, C1156Y) | cell-free assay | 72% |
| Aurora kinase B (AURKB, Homo sapiens, UniProt Q96GD4) | cell-free assay | 86% |
| KDR (Homo sapiens, UniProt P35968) | cell-free assay | 87% |
| PIK3C3 (Homo sapiens, UniProt Q8NEB9) | cell-free assay | 78% |
| DAPK3 (Homo sapiens, UniProt O43293) | cell-free assay | 97% |
| EGFR (Homo sapiens, UniProt P00533, A750P/del747-749) | cell-free assay | 100% |
| ERBB4 (Homo sapiens, UniProt Q15303) | cell-free assay | 94% |
